# Published values of several laboratories.
# Each line is one published result; not all experiments were run side by side. “And” joins repeats or separate records; there may be more than shown. Numbers after ± are the reported error.
Compound,test,system,conditions,how to read,measurement,result
CN1C[C@H](COc2nccc3c(NCc4ccco4)cc(Cl)nc23)OC1=O,,"rabbit NZW female, isolated Langendorff heart","3 µM, 15 min",,PR interval,65 ms
C=CC(=O)N1CCC[C@@H](n2nc(-c3ccc(Oc4ccccc4)cc3)c3c(N)ncnc32)C1,,"Wistar rat, plasma","oral, dose not given, suspension",,mean residence time,6.42 ± 1.96 h
CCCCCCCCCCCCCCCC(=O)N[C@@H](CCC(=O)NCCCC[C@@H]1NC(=O)[C@H]([C@@H](C)CC)NC(=O)[C@@H](NC(=O)[C@@H]2CCCN2C(=O)[C@H](Cc2ccccc2)NC(=O)[C@H](Cc2c[nH]cn2)NC(=O)[C@@H](NC(=O)[C@H](CC(=O)O)NC(=O)CC(C)C)[C@@H](C)O)CSSC[C@@H](C(=O)N[C@@H](CCCCN)C(N)=O)NC(=O)CNC(=O)[C@H](CCCCN)NC(=O)[C@H](CO)NC(=O)[C@H](CCCNC(=N)N)NC(=O)[C@@H]2CCCN2C(=O)[C@H](CCC(=O)O)NC(=O)[C@H](Cc2ccccc2)NC1=O)C(=O)O,,healthy human,"subcutaneous, 20 mg",baseline: lyophilized over aqueous formulation,relative AUCinf,~1.5 fold
FC(F)(F)c1ccc(CNc2ccc(Cc3c[nH]c4ncc(Cl)cc34)cn2)cn1,item: Pyrexia,patients with advanced solid tumours,"oral, dose not given, all grades, possibly related to drug",,adverse event incidence,11%
N#Cc1ccc2c(c1)[C@H]1CCCN(C(=O)c3ccc4[nH]cnc4c3)[C@H]1C2,,human,"360 mg, end of trial",,maximum ACTH level,10.8 pmol/L
Cl.[2H]C([2H])([2H])CC(=O)c1cnc(NC(=O)C2CC2)cc1Nc1cccc(-c2ncn(C([2H])([2H])[2H])n2)c1OC,geometric mean,human,"oral, 40 mg twice daily, day 1, fed, liquid, multiple dose",,Cmax,275 ng/mL
COc1ccc2c(c1)CN(C(=O)CCN1CCC(Cc3ccccc3)CC1)CC[S@@+]2[O-],telemetry,conscious dog,"intravenous, 4 mg/kg, 2 h",,heart rate,71 ± 14 beats/min
CSc1cc(C)nc(SC)c1NC(=O)CN1CCN(CCSc2nc3ccccc3[nH]2)CC1.Cl,,"mouse Crl:CD1 (ICR) female, cerebrum","intranasal, 50 µL of 3.24 mg/mL in 0.01 N HCl daily, 120 min, 7 days dosing",,concentration,5.8 ng/g and 1.2 ng/g and 1.5 ng/g and 0.8 ng/g
Cc1cccc(CNC(=O)c2cn(CCNC(=O)c3ccccc3Sc3c([N+](=O)[O-])ncn3C)c3cc4c(cc3c2=O)OC(F)(F)O4)n1,,"Sprague-Dawley rat, male, whole blood","intramuscular, 3 mg/kg of parent drug",,half-life,2.31 h
C[C@H]1O[C@@H](O[C@H]2[C@@H](O)C[C@H](O[C@H]3[C@@H](O)C[C@H](O[C@H]4CC[C@@]5(C)[C@H](CC[C@@H]6[C@@H]5C[C@@H](O)[C@]5(C)[C@@H](C7=CC(=O)OC7)CC[C@]65O)C4)O[C@@H]3C)O[C@@H]2C)C[C@H](O)[C@@H]1O,item: infections and infestations,healthy men,"oral, dose not given, 8 days, treatment-emergent, crossover trial",,subjects with adverse event,0%
C[C@@H](N)C1CCN(S(=O)(=O)c2cccc3cnccc23)CC1,,healthy volunteers,"250 mg, fasted",,participants with hypotension,16.7%
CC(C)c1nc(N(C)S(C)(=O)=O)nc(-c2ccc(F)cc2)c1/C=C/[C@@H](O)C[C@@H](O)CC(=O)O,,rat Wistar albino,"dose not given, 14 days",,liver weight,7.6 g
C[C@H](CCC(=O)NCCS(=O)(=O)O)[C@H]1CC[C@H]2[C@@H]3[C@H](O)C[C@@H]4C[C@H](O)CC[C@]4(C)[C@H]3C[C@H](O)[C@]12C,,"human, plasma",endogenous baseline diurnal,baseline: daily mean concentration,relative peak deviation,102 ± 11%
CCc1c(-c2ccccc2)c(-c2ccccc2)nn1-c1ccccc1-c1cccc(OCC(=O)O)c1,,Sprague-Dawley rat,"intravenous, dose not given",,Tlast,8 h
O=C1CCc2ccc(OCCCCN3CCN(c4cccc(Cl)c4Cl)CC3)cc2N1,item: Xerostomia,"patients, CYP2D6 normal metabolizers","dose not given, long-acting oral or depot",,adverse event incidence,7%
O=[N+]([O-])c1cn2c(n1)OC[C@@H](OCc1ccc(N3CCCCC3)cc1)C2,,aqueous buffer,pH 7.4,,aqueous solubility,4.9 µg/mL
Cc1ccc(Sc2ccccc2N2CCNCC2)c(C)c1,,healthy adult men,"oral, 10 mg single, 10 day",,blood in urine,0%
Cc1nc2cccc(OCC(C)(C)C(=O)NC(C)C)c2c(N)c1C(=O)O,,"male Swiss albino CD-1 mouse, bone marrow","oral, 500 mg/kg, 48 h",,micronucleated NCE per 2000 PCE,1
O=C(O)CCC(=O)O.[2H]C([2H])([2H])Oc1cc(C)c2[nH]ccc2c1CN1CC[C@@H](C2CC2)C[C@H]1c1ccc(C(=O)O)cc1,,healthy Chinese subjects,"200 mg, single ascending dose",,TEAE decreased fibrinogen,8.3%
CC(=O)N(C)C1CCN(c2cc(F)cc(NC(=O)c3cc4c(F)ccc(C)c4[nH]3)c2)C1 (centres unmarked),,"CD1 mouse, plasma","oral, 50 mg/kg, 0.5 h",,plasma concentration,27.6 ng/mL
NC1(C(=O)N[C@@H](CCO)c2ccc(Cl)cc2)CCN(c2nc[nH]c3nccc2-3)CC1,,metastatic CRPC patients,"320 mg b.i.d., any grade, treatment-related, added: enzalutamide 160 mg daily",,incidence of Arthralgia,0%
COc1cc2c3c(n(CCCN4CCOCC4)c(=O)c2cc1OC)-c1cc2c(cc1C3=O)OCO2,,"beagle dog, male, plasma","intravenous infusion, 50 mg/m^2, 1 h infusion, vehicle 1",,AUC(0-inf),1500 ± 693 ng·h/mL
C[Si](C)(C)O[Si](C)(C)C,,,,,"slope B, log KAW vs 1/T",-2770
O=C(O)CSc1nnc(Br)n1-c1ccc(C2CC2)c2ccccc12,,"KM mouse, chronic hyperuricaemia model","dose not given, day 29",,body weight,39 g and 38 g and 35.4 g and 33.8 g and 42.2 g
Cc1cc(-c2nccc3c2ccn3CC(=O)Nc2ccc(-c3cnccn3)cn2)ccn1,,human,"5 mg once daily, multiple ascending dose",,nervous system disorders,0%
CNC(=O)c1cc(Oc2ccc(NC(=O)Nc3cc(C(C)(C)C)nn3-c3ccc4ncccc4c3)c(F)c2)ccn1,item: worst grade 3,human,"oral, dose not given, cycles 1 and 2, Medium Cmax subgroup",,patients with nervous system disorder AE,7%
C[C@@H](Oc1ccc(S(C)(=O)=O)cc1C(=O)N1C[C@@H]2C[C@]2(c2cc(C(F)(F)F)on2)C1)C(F)(F)F,item: AUC0–tz,healthy human volunteers,"oral, 10 mg",baseline: fed over fasted,fed over fasted ratio,115%
CNC(=O)c1ccc(-c2cnc3ncc(Cc4ccc5ncccc5c4)n3n2)cc1F,"item: Dyspnea, all grades",cancer patients,"oral, 600 mg twice daily, expansion cohort, any causality",,patients with adverse event,11%
NS(=O)(=O)c1ccc(-n2nc(C(F)(F)F)cc2-c2ccc(C(=O)O)cc2)cc1,,Sprague-Dawley rat,"oral, 20 mg/kg of celecoxib, 8 h",,blood-to-plasma ratio,1.98
CC(C)n1c(Nc2cccnc2)nc2cnc(Nc3ccc(N4CCN(C)CC4)cc3)nc21,item: white blood cell count elevated,healthy male subjects,"oral, 100 mg, study, added: itraconazole",,subjects with adverse event,0%
O=C(Nc1nc2cccc(-c3ccc(CN4CCS(=O)(=O)CC4)cc3)n2n1)C1CC1,item: animal bite,human rheumatoid arthritis patients,"oral, 30 mg once daily, 4 weeks, regardless of relatedness",,treatment-emergent adverse events,0%
CC(C)=CC[C@@H](O)C1=CC(=O)c2c(O)ccc(O)c2C1=O,,plasma,"25 ng/mL, 3 freeze-thaw cycles at -80 °C",,measured concentration,22.9 ± 1.11 ng/mL
Cc1cc2sc(N)nc2c2cccnc12,,"female BALB/c mice, plasma","intraperitoneal, 30 mg/kg",,dose-normalised AUC(0-t),1520 kg·ng·h/mL/mg
C=CCN1CC(=O)N2[C@@H](Cc3ccc(O)cc3F)C(=O)N(Cc3cccc(N4CC(N5CCN(CC)CC5)C4)n3)C[C@@H]2N1C(=O)NCc1ccccc1,item: Diarrhea,advanced solid tumour patients,"oral, 120 mg twice daily, expansion part, grade ≥3",,treatment-related adverse events,0%
CCO[C@H]1CCN(Cc2c(OC)cc(C)c3[nH]ccc23)[C@H](c2ccc(C(=O)O)cc2)C1,,severe hepatic impairment patients,"oral, 200 mg, geometric mean",,unbound AUC(0-t),13700 ng·h/mL
CCN1/C(=C/C(C)=O)Sc2ccc(F)cc21,,cynomolgus monkey,"oral, 10 mg/kg, 1 h post-dose",baseline: pre-dose,QTc interval change,99.8 ± 2.9%
CC(C)NCCCC[C@@H]1NC(=O)[C@H](Cc2ccc(O)cc2)NC(=O)[C@H](Cc2ccccc2)NC(=O)CC[C@H](C(=O)N[C@@H](CCCCNC(C)C)C(=O)N[C@@H](CCCCNC(=O)[C@H](CCC(=O)O)NC(=O)[C@H](CCC(=O)O)NC(=O)[C@H](CCC(=O)O)NC(=O)CN2CCN(CC(=O)O)CCN(CC(=O)O)CCN(CC(=O)O)CC2)C(N)=O)NC(=O)CNC(=O)[C@H](Cc2ccc3ccccc3c2)NC(=O)[C@@H](CCCNC(=N)N)NC1=O [gallium-68 labelled],,"mouse with Daudi xenograft, liver","intravenous, 2 h",,tissue uptake,0.54 %ID/g
COc1cc(Nc2ncc3c(n2)-c2ccc(Cl)cc2C(c2c(F)cccc2OC)=NC3)ccc1C(=O)O,"item: Alopecia, grade 2","cancer patients, phase 1/2","oral, dose not given, added: pembrolizumab",,patients with adverse event,8%
CNCc1ccc(-c2[nH]c3cc(F)cc4c3c2CCNC4=O)cc1,,human patients,"oral, 600 mg twice daily, grade 1",,AST/ALT increased incidence,3.8%
CCc1cc(C(=O)NC)c2nccc(N3CCc4c(cc(Cn5ccnc5)cc4-c4cn(C)nc4C(F)(F)F)C3=O)c2c1,,Sprague Dawley rats,"oral, 100 mg/kg twice daily, 7 days",,mean platelet volume,7.85 ± 0.26 fL
CCn1c(=O)c(-c2cc(NC(=O)Nc3ccccc3)c(F)cc2Br)cc2cnc(NC)cc21,item: amylase increased,"human, moderate hepatic impairment","oral, 50 mg single dose",,participants with grade ≥ 3 TEAE,0%
N=C(N)NCCNC(=O)C1(Nc2ccccc2)CCN(Cc2ccccc2)CC1,,"female Sprague-Dawley rats, plasma","oral, 50 mg/kg",,mean residence time,0.5 ± 0.1 h
C[C@H](CCC(=O)NCC(=O)O)[C@H]1CC[C@H]2[C@@H]3CC[C@@H]4C[C@H](O)CC[C@]4(C)[C@H]3CC[C@]12C,,"human, plasma",endogenous control diurnal,baseline: daily mean concentration,relative peak deviation,147 ± 20%
CCOc1c([C@H](C)n2nc(C)c3c(N)ncnc32)cc(Cl)c(F)c1[C@@H]1CNC(=O)C1,,"patients, monotherapy","oral, 30 mg once daily, cycle 1 day 1",,Cmax geometric mean,3.19 µM
